Measurements gathered from unrelated publications.
Protocols differ between the studies behind these lines. Numbers after ± are the reported error. Converted amounts (≈) assume the structure as drawn. Ends that are not written are not given here.
Organism: Pseudomonas aeruginosa

With `CCN1CCN(C(=O)N[C@@H](C(=O)N[C@@H]2C(=O)N3[C@@H]2SC(C)(C)[C@@H]3C(=O)O)c2ccccc2)C(=O)C1=O` the FIC index was 1 (checkerboard broth microdilution; clinical isolate 17-99; together with: ranalexin).
`polymyxin B` has an MBIC of 8 µg/mL (biofilm formation, inhibitor; PAO1; 24 h, 37 °C).
For `TRSSRAGLQWPVGRVHRLLRK-NH2 (C-amide)`, the MIC50 was over 25.9 µg/mL (bacterial growth, broth microdilution; peptide, PAO1, Mueller-Hinton broth; overnight, 37 °C).
The MIC50 of `CC[C@H](C)[C@H](NC(=O)CNC(=O)[C@H](CCC(=O)O)NC(=O)[C@H](CO)NC(=O)[C@@H](NC(=O)[C@H](CCCNC(=N)N)NC(=O)[C@H](CCCCN)NC(=O)[C@H](CCCCN)NC(=O)[C@H](C)NC(=O)[C@H](CO)NC(=O)[C@H](CC(N)=O)NC(=O)[C@H](CCC(=O)O)NC(=O)[C@H](CC(C)C)NC(=O)[C@H](CCCCN)NC(=O)[C@H](CCCCN)NC(=O)[C@H](C)NC(=O)[C@@H](NC(=O)[C@H](CCCCN)NC(=O)[C@H](CO)NC(=O)[C@H](CC(C)C)NC(=O)[C@H](Cc1c[nH]c2ccccc12)NC(=O)[C@@H](N)CO)[C@@H](C)O)[C@@H](C)CC)C(=O)N[C@@H](C)C(=O)N[C@H](C(=O)N[C@@H](C)C(=O)N[C@H](C(=O)N[C@@H](CCC(N)=O)C(=O)NCC(=O)NCC(=O)N1CCC[C@H]1C(=O)N[C@@H](CCCNC(=N)N)C(=O)O)[C@@H](C)CC)[C@@H](C)CC` is reported as 8 µg/mL (≈ 2.4 µM) (broth microdilution; 18 h, 10 clinical isolates).
`O=c1cc(-c2ccc(O)c(O)c2)oc2cc(O)cc(O)c12` has an inhibition of over 50% (microbial growth; ATCC15692 PAO1; 11.1 µM).
`C[C@@H](O)[C@H]1C(=O)N2C(C(=O)O)=C(S[C@@H]3CN[C@H](C(=O)N(C)C)C3)[C@H](C)[C@H]12` has an FIC index of 0.312 (checkerboard broth microdilution; clinical isolate 17-99; together with: magainin II).
The MIC of `CC(C)C[C@H](NC(=O)CNC(=O)[C@H](C)NC(=O)c1ccc(S[C@@H]2O[C@H](CO)[C@H](O)[C@H](O)[C@H]2O)cc1)C(=O)N[C@@H](C)C(=O)N[C@H]1CCN(c2cc3c(cc2F)c(=O)c(C(=O)O)cn3C2CC2)C1` is reported as 0.78 to 6.25 µM (broth microdilution; PA14, human plasma with LB in PBS; 50% plasma, 10% LB, pre-incubation 3 h).
Under “CNP inhibition of biofilm formation”, `O=C1Nc2ccccc2C1=O` is recorded as “inhibited” (MPAO1; concentration not given, 20 min pre-exposure, static conditions).
`CC(C)c1cccc(=S)c(O)c1` gave an MIC80 of over 100 µM (microbial growth, broth dilution; ATCC27853).
`CC[C@@H](C)[C@@H](NC(=O)[C@@H](C)NC(=O)[C@@H](CCCNC(=N)N)NC(=O)[C@@H](Cc1c[nH]c2ccccc12)NC(=O)[C@@H](CCC(N)=O)NC(=O)[C@H](N)C(C)C)C(=O)N[C@H](CCCNC(=N)N)C(=O)N[C@@H](C(=O)N[C@H](CCCNC(=N)N)C(=O)N[C@@H](C(=O)N[C@@H](C(=O)N[C@H](CCCNC(=N)N)C(N)=O)[C@H](C)CC)C(C)C)C(C)C` gave a survival of 90 ± 6% (PAO1, Galleria mellonella larvae; proleg injection, 20 µg per larva, 24 h post infection, 37 °C, dosed 1 h after infection).
With `C=CCc1cc(/C=C2/SC(Nc3ccc(S(N)(=O)=O)cc3)=NC2=O)c(O)c(OC)c1` the inhibition was 32.1% (microbial growth; ATCC10145; 50 µg/mL, 24 h).
For `GSSFLSPEHQRVQQRKESKKPPAKLQPR (ghrelin; ends and bridges not checked; sequence looked up)`, the bactericidal concentration was at least 12.5 µg/mL (bacterial killing; peptide, ATCC 15692, sodium phosphate buffer; 2 h, pH 6.8, 37 °C; reference: untreated).
`CCC(=O)O[C@H]1[C@H](C)O[C@@H](O[C@H]2[C@H](N(C)C)[C@@H](O)[C@H](O[C@H]3[C@@H](CC=O)C[C@@H](C)[C@@H](O)/C=C/C=C/C[C@@H](C)OC(=O)C[C@@H](O)[C@@H]3OC)O[C@@H]2C)C[C@@]1(C)O` — result for “inhibition zone diameter”: 11 mm (growth; SG 137, DMSO–methanol; 50 µL of 2.0 mM, 24 h, 37 °C).
For `CC(C)(O/N=C(\C(=O)N[C@@H]1C(=O)N2C(C(=O)[O-])=C(C[n+]3ccccc3)CS[C@H]12)c1csc(N)n1)C(=O)O`, the FIC index was 0.375 (checkerboard broth microdilution; clinical isolate 8-97; together with: magainin II).
`CCc1cc(CC)n(C(N)=S)n1` gave an MBC of over 1000 µg/mL (broth microdilution, agar subculture; ATCC 25619; 24 h).
`O=C(Nc1ccc(F)cc1)c1cc(Cl)ccc1O` gave an MIC of over 64 µg/mL (microbial growth, broth dilution; ATCC27853).
`CC[C@H]1OC(=O)[C@H](C)[C@@H](O[C@H]2C[C@@](C)(OC)[C@@H](O)[C@H](C)O2)[C@H](C)[C@@H](O[C@@H]2O[C@H](C)C[C@H](N(C)C)[C@H]2O)[C@](C)(OC)C[C@@H](C)C(=O)[C@H](C)[C@@H](O)[C@]1(C)O` has an FIC index of 1 (checkerboard; ATCC 27853; together with: magainin II).
For `CC(=O)N[C@@H](C)C(=O)N[C@@H](CCC(N)=O)C(=O)N[C@@H](CCCCN)C(=O)N[C@@H](CC(C)C)C(=O)N[C@@H](CC(C)C)C(=O)N[C@@H](CCCCN)C(=O)N[C@@H](CCCCN)C(=O)N[C@@H](Cc1ccccc1)C(=O)N[C@@H](CO)C(=O)N[C@@H](CC(C)C)C(=O)N[C@@H](CC(C)C)C(=O)N[C@@H](CCCCN)C(=O)N1CCC[C@H]1C(=O)N[C@@H](Cc1c[nH]c2ccccc12)C(=O)N[C@@H](C)C(=O)O`, the inhibition was 66% (spermidine uptake; PA14; 25 µM, 45 min pretreatment, 35 °C, together with: [14C]spermidine, 15 min).
With `CC1(C)S[C@@H]2[C@H](NC(=O)[C@H](N)c3ccc(O)cc3)C(=O)N2[C@H]1C(=O)O` the susceptible isolates was 0% (hospitalized pneumonia patients, clinical isolates; Fine score 70 or more).
`CO/N=C(\C(=O)N[C@@H]1C(=O)N2C(C(=O)O)=C(CSc3nc(=O)c(=O)[nH]n3C)CS[C@H]12)c1csc(N)n1` gave an FIC index of 0.312 (checkerboard broth microdilution; clinical isolate 8-97; together with: magainin II).
The MIC of `O=C(Nc1ccc(F)c(Cl)c1)c1ccccc1O` is reported as over 64 µg/mL (microbial growth, broth dilution; ATCC27853).
With `Cc1cc(O)n(C(N)=S)n1` the MBC was over 1000 µg/mL (broth microdilution, agar subculture; ATCC 25619; 24 h).
The FIC index of `C[C@H]1c2cccc(O)c2C(=O)C2=C(O)[C@]3(O)C(=O)C(C(N)=O)=C(O)[C@@H](N(C)C)[C@@H]3[C@@H](O)[C@@H]21` is reported as 0.375 (checkerboard broth microdilution; clinical isolate 17-99; together with: ranalexin).
For `CNC(C)C1CCC(N)C(OC2C(N)CC(N)C(OC3OCC(C)(O)C(NC)C3O)C2O)O1` (stereo not drawn), “inhibition zone diameter” read 19 mm (IFO 3448; 100 µg/disc, 24 h).
The MIC of `O=C(Nc1ccccc1)c1ccccc1O` is reported as over 64 µg/mL (microbial growth, broth dilution; ATCC27853).
`CCOC(=O)CSc1nnc(C23CC4CC(CC(C4)C2)C3)n1-c1ccccc1` — result for “inhibition zone diameter”: under 10 mm (IFO 3448; 200 µg/disc, 24 h, 37 °C).
`O=C(O)c1cn(C2CC2)c2cc(N3CCNCC3)c(F)cc2c1=O` gave an inhibition of 99.2% (microbial growth; ATCC10145; 50 µg/mL, 24 h).

For quick reference, copied from above:
`O=C(O)c1cn(C2CC2)c2cc(N3CCNCC3)c(F)cc2c1=O` gave an inhibition of 99.2% (microbial growth; ATCC10145; 50 µg/mL, 24 h).
`O=c1cc(-c2ccc(O)c(O)c2)oc2cc(O)cc(O)c12` has an inhibition of over 50% (microbial growth; ATCC15692 PAO1; 11.1 µM).
